# Measured values from different studies.
# Numbered parts are unrelated; each lists some results of a single study.
# Sequence of UniProt P41743 (whole entry, looked up): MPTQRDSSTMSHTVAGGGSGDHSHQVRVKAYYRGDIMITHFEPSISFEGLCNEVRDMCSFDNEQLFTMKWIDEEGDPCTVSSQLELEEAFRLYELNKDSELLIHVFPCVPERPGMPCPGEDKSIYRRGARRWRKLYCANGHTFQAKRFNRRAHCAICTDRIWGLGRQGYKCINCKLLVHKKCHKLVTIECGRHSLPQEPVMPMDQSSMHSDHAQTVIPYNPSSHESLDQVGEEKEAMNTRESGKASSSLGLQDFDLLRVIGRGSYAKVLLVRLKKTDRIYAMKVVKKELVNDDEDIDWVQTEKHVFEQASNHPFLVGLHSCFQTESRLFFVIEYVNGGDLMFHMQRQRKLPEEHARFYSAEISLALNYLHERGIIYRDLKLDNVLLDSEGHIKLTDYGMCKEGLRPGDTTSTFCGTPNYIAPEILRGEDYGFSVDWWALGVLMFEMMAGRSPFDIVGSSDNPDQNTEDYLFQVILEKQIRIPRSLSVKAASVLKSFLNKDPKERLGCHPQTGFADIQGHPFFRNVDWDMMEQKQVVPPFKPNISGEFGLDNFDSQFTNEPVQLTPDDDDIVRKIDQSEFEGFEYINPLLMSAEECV

# Series 1 — method: RNAcompete; molecule type: RNA; medium: in vitro; tested at: 20 nM; notes: 7-mer, probes averaged, single round; relative to: mean of 7-mers; direction: higher = stronger binding
# Target: PABPC1L2, full length, GST fusion (mouse, UniProt A0ABA7IW68)
# Residues (chain): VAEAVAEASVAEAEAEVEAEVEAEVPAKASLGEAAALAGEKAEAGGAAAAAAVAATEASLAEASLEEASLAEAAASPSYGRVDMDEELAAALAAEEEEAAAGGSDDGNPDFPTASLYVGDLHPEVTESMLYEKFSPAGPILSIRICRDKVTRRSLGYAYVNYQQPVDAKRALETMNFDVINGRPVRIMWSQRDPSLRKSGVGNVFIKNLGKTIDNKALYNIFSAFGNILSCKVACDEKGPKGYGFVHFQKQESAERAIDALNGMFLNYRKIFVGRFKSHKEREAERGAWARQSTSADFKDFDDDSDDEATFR
Oligonucleotide,7-mer Z-score
GGUGACA,0.202
GGUCGCC,-0.365
CUAGCGA,-0.115
UUGCGGC,-0.24
CGCCCUG,-0.284
UCGUUGU,-0.539
GCUAAUU,-0.171
AGCGUAU,-0.164

# Series 2 — method: RNA Bind-n-Seq; molecule type: RNA; medium: in vitro; tested at: 20 nM; notes: 6-mer, flanks averaged, single round; added: 150 mM KCl; relative to: input library; direction: higher = stronger binding
# Target: TAR DNA-binding protein 43, full length, His tag (TARDBP, Homo sapiens, UniProt Q13148, residues 1-414)
Oligonucleotide,6-mer enrichment (R)
UACCGG,0.953
AUGUUG,0.884
UCCUGA,0.606
CACUUC,0.562
CUCUAG,0.607
CGAGUG,1.52
GCAAGG,2.04
GUAUUA,0.65

# Series 3 — method: RNA Bind-n-Seq; molecule type: RNA; medium: in vitro; tested at: not given; notes: RNA with constant flanks, ends assumed; relative to: input RNA pool; direction: higher = stronger binding
# Target: RING finger protein unkempt homolog, zinc fingers 1-6, GST-SBP tag (UNK, Homo sapiens, UniProt Q9C0B0, residues 30-357)
# Shared flanks, not repeated: GGGAGUUCUACAGUCCGACGAUC … CAACAGAGGAUUGAGCAUCA
# Construct (chain): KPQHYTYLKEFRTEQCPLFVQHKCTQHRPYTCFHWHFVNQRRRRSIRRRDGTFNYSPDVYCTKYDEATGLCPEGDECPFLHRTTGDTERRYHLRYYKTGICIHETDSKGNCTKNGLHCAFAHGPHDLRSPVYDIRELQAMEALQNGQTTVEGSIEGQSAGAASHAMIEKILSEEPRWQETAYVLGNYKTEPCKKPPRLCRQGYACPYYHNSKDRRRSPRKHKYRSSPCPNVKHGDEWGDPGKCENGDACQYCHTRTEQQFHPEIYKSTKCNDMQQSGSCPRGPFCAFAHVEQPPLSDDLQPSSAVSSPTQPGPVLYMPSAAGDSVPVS
Oligonucleotide,bound/input enrichment [ratio]
UUUAUUGAUCAGGUCUGUAAAUGUGUACUGAAAAAAAUCAGAGUUUAUUUAUAAACCGAACCGUUUAUUUAAAGAGGUAUUUUCCUCCUUGAUAUCAUGGUAUGCAUAAUUCUGUGUGUU,0.054
CGGUUUGCAGUCCCACCAGCACUCGGCAGUAAUCUGGCUGACAAUGUCAUGAUUACUGCCGAUAUUAUUCCUUCUGGUUGGAAUUCAACUGAUGGGAAAAAUGAUAAAGCUAAAAGUGCA,0.107
GAGCAGGGUGACAUGGCUGGCAAUUCUGCUUUAUAAAAUCGUGUCUCUAAAACUGUGUUCAUGUGUCCCGGAAGUAUUUAAUAAACUUGUGUAGAAACUUUUUGUGGUUGGGCCCUGGGA,1.17
UGGUAUCUCUUCUUAGUGUUCUAUUUAUCUUAUUUGCUAAUGAGAACAAUUCUUCUUCUGUCCGGCUGUGCUUUAUUGAUAAAACCAAGUAUUGAAUAAAGAGAGUUAAUUAUCUUUUUA,1.16
GGCUACCUGGUCUCCGUGGAUGGCUACAUGAACAUGCAGCUUGCAAAUACAGAAGAGUACACCGAUGGGGCGCUGUCUGGACAUCUGGGCGAAGUUCUAAUAAGGUGUAAUAAUGUCCUC,0.0789
AAAGAAAACCUGGAGACUUCUCCUUUCAUAACUCCCGGAAAGCCUUGGGAAGAGGCCCGCCGUUUUAUUAUGAAUGAGGAUUUCUACCAGUGGCUGGAGGAAUCUGUAUACAUGGAUAUU,0.32
AUAUUUGUAAAUAAAGGUAGAAACAUUGGGAUCCACCCCUGCAGAACUUACUGUACAGUUCCGUUGAAGUGUAGAAAGGAAUUGUCAGCUCAUCGUGACUGAUACAUAGUGAAGAAAGUA,3.43
UCCAGACAGGAAGAACAAAACCCAUUCUAGCACUUUCAUUUUUAAAAAAAAAAAGGUUUACCGCUUUUUGUUCCGCCCUCCUCCUCCCCAUUUCACAAUGUCCAUUCCUUAAGAAGGGUU,7.62

# Further values, each from its own experiment
Structure (SMILES),target,test,conditions,how to read,endpoint,result
O=C(Nc1cccc(Nc2nccc(Nc3cccc(C(F)(F)F)c3)n2)c1)C1CC1,"Protein kinase C iota type (PRKCI, Homo sapiens, UniProt P41743)","enzyme activity, inhibitor",0.5 µM,relative to: control,remaining activity,91.3%

# Excerpt of the above (series 1):
Oligonucleotide,7-mer Z-score
GGUCGCC,-0.365
GCUAAUU,-0.171
